Experimental data gathered from unrelated publications.
Numbered parts are unrelated; each lists some results of a single study.

Series 1
Target: Sox-I, HMG box (Salpingoeca helianthica)
Technique: Spec-seq
Molecule type: double-stranded DNA, one strand shown
Matrix: in vitro
Concentration: not given
Notes: whole probe, mean of replicates
Baseline: not given
Reading: lower = stronger binding
Target sequence (chain): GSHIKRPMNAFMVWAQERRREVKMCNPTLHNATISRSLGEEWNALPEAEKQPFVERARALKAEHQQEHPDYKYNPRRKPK
Oligonucleotide | relative binding energy
GAGTCGTCTCGTCAGCACGCATGTTCCGTAGAGCACTCAGGTC | 0.549 ln ratio
GAGTCGTCTCGTCAGCACACGTGTTCCGTAGAGCACTCAGGTC | -0.0927 ln ratio
GAGTCGTCTCGTCAGCACTAGAGTTCCGTAGAGCACTCAGGTC | 0.45 ln ratio

Series 2
Target: TAR DNA-binding protein 43, full length, His tag (TARDBP, Homo sapiens, UniProt Q13148, residues 1-414)
Technique: RNA Bind-n-Seq
Molecule type: RNA
Matrix: in vitro
Concentration: 20 nM
Notes: 6-mer, flanks averaged, single round
With: 150 mM LiCl
Baseline: input library
Reading: higher = stronger binding
Oligonucleotide | 6-mer enrichment (R)
GUAAGA | 0.959
AUCCUG | 0.84
CUUUUU | 1.46
CGCAUU | 0.905
UGACUG | 1

Series 3
Target: Histone acetyltransferase KAT6A, both winged helices, GST fusion (KAT6A, Homo sapiens, UniProt Q92794, residues 1-181)
Technique: protein binding microarray
Molecule type: double-stranded DNA, one strand shown
Matrix: in vitro
Concentration: not given
Notes: 8-mer, flanks averaged, mean of 2 arrays, mostly near background
Baseline: not given
Reading: higher = stronger binding
Residues (chain): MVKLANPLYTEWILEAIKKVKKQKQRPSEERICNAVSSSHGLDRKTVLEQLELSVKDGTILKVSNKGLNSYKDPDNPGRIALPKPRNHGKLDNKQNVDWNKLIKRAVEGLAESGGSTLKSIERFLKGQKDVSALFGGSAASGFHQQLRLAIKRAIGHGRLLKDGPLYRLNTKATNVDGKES
Oligonucleotide | E-score
ACGGGGGC | 0.0992
CTAACTAG | -0.0161
AAACCAAA | -0.0644

Single results of other studies
Substance | target | assay | system | setting | scale | quantity | result
PhoQ, residues 284 288 289 292 302 303 NLCILV | PhoP, residues 12 14 15 18 19 IQSYL (Escherichia coli, UniProt P23836) | Sort-seq, measured: YFP reporter | E. coli | PhoQ-PhoP variant library, with: 10 µM Mg2+ | baseline: high Mg2+ state, higher = stronger signaling | fold induction | 5.79
